Experimental data gathered from unrelated publications.
Each numbered part is a random draw from the data of one study; scales do not carry over between parts.
UniProt P11802, sequence (whole entry, looked up): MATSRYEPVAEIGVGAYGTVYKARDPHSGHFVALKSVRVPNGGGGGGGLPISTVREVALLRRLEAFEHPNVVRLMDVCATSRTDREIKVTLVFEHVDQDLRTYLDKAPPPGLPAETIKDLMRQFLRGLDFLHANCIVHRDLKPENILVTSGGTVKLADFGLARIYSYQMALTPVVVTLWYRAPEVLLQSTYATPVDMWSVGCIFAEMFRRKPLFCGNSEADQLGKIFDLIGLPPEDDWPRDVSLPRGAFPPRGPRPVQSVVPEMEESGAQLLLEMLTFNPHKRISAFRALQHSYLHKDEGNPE
UniProt P45985, sequence (whole entry, looked up): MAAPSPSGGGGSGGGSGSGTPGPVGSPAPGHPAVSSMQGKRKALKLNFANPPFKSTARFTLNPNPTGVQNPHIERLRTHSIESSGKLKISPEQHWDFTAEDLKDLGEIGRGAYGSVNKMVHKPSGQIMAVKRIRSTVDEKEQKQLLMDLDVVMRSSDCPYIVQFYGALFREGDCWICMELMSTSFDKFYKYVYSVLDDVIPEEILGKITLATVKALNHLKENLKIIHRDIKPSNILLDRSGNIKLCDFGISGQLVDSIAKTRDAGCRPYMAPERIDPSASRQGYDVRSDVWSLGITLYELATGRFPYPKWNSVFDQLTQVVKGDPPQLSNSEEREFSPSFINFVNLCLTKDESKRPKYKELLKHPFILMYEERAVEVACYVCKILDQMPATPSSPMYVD
UniProt P22607, sequence (whole entry, looked up): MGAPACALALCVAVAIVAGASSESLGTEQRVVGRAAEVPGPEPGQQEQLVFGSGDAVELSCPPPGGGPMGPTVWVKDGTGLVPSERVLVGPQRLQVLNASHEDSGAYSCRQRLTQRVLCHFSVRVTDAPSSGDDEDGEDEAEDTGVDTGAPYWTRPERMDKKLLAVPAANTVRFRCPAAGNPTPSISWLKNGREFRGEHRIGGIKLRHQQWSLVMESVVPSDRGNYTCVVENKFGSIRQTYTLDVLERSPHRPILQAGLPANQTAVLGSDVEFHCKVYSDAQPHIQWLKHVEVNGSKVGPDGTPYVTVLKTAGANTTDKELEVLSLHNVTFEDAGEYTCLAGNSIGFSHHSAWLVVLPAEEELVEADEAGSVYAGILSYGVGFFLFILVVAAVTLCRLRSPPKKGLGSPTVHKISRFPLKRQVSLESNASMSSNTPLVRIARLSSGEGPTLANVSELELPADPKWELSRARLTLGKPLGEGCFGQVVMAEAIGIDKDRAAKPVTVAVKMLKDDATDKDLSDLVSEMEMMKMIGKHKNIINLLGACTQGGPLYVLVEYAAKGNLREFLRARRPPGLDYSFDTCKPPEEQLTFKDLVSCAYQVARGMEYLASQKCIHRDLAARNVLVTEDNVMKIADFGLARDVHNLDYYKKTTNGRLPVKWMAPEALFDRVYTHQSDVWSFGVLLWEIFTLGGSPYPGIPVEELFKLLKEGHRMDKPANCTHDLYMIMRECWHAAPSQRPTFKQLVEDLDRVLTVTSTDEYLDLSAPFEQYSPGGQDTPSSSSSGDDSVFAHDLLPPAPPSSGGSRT
UniProt P07947, sequence (whole entry, looked up): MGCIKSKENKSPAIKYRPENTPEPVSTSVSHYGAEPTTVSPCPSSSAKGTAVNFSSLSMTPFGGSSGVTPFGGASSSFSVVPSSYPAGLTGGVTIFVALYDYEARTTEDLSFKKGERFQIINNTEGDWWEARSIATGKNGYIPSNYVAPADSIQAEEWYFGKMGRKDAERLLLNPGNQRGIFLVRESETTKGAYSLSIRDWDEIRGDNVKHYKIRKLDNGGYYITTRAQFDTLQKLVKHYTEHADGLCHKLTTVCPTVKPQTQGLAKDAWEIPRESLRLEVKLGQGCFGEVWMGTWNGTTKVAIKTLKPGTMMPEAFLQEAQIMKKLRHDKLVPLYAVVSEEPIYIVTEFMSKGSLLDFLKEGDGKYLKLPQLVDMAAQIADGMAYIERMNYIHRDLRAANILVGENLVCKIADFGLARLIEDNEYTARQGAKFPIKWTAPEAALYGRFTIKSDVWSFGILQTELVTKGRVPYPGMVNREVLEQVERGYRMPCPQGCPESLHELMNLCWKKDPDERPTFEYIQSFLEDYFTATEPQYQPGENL
UniProt Q15418, sequence (whole entry, looked up): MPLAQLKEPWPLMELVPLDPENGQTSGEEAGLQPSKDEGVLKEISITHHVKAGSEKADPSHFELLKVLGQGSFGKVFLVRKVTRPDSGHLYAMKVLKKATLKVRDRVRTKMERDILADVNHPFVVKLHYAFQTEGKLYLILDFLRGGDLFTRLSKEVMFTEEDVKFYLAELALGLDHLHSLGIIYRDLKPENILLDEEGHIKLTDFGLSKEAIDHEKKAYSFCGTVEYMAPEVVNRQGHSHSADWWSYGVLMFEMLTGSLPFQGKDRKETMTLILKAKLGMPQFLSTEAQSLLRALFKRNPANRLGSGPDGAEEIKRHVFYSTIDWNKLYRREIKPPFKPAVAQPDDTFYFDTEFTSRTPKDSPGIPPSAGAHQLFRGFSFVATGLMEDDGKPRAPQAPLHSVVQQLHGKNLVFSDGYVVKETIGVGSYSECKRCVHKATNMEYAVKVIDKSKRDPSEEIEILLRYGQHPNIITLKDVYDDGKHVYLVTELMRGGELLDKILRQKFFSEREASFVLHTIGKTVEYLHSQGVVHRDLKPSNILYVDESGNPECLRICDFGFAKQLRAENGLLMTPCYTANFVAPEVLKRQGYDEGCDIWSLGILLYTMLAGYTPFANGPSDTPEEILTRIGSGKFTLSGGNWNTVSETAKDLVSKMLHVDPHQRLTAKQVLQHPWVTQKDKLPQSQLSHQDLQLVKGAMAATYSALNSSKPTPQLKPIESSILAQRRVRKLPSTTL
UniProt Q14680, sequence (whole entry, looked up): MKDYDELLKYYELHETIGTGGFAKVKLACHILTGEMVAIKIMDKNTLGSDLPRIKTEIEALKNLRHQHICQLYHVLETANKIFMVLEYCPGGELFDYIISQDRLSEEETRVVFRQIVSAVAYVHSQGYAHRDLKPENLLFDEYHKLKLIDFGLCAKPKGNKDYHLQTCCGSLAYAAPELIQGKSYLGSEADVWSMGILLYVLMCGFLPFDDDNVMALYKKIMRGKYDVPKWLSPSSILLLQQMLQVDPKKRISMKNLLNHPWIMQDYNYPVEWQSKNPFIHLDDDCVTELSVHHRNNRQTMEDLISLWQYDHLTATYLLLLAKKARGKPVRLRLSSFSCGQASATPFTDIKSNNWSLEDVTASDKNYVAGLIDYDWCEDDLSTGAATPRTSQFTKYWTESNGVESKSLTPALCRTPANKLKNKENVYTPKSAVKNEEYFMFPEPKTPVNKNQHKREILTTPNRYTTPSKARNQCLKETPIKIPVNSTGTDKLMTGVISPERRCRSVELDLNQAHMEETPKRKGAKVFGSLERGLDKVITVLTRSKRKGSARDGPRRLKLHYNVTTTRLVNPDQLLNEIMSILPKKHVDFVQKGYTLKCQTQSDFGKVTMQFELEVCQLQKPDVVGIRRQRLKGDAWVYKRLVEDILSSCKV

Study 1
Target: CRBN/Zinc finger protein Helios (Homo sapiens, UniProt Q96SW2+Q9UKS7)
UniProt Q9UKS7, sequence (whole entry, looked up): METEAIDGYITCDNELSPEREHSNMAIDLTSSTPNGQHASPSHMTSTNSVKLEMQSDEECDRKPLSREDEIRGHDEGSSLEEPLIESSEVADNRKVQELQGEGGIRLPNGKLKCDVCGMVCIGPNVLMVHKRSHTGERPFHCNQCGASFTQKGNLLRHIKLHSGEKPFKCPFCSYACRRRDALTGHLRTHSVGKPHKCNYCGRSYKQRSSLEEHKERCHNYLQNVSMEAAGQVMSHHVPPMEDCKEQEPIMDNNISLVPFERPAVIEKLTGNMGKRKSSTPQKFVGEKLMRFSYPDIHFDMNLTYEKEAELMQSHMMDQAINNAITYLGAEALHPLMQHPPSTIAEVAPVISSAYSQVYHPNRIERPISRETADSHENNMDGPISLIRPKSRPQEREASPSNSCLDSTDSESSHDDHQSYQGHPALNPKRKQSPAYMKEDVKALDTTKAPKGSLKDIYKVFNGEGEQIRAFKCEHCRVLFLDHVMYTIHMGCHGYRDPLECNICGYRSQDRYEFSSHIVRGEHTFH
UniProt Q96SW2, sequence (whole entry, looked up): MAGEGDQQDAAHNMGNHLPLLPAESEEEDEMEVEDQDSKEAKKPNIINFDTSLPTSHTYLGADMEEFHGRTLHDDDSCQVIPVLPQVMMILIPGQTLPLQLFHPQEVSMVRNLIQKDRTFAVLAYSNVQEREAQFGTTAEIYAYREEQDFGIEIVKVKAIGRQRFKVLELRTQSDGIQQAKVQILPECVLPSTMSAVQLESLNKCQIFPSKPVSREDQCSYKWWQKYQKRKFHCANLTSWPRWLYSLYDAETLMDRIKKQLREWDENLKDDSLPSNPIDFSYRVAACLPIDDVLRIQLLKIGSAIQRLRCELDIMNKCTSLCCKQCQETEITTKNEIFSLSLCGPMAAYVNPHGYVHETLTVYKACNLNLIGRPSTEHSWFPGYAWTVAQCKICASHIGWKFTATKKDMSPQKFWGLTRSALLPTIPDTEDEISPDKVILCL
Mode: degrader
Method: HiBiT
Cell line: HEK293
Concentration: 1111.11 nM
Endpoint: protein remaining
O=C1CCC(N2Cc3c(ccc4c3OCCC43CCN(Cc4ccccc4)CC3)C2=O)C(=O)N1 (stereo not drawn): 68.6%
O=C1CCC(N2Cc3c(ccc4c3OCC43CCC(Cc4ccccc4)CC3)C2=O)C(=O)N1 (stereo not drawn): 89.8%
O=C1CCC(N2Cc3c(ccc4c3OCC43CCC(Oc4ccccc4)CC3)C2=O)C(=O)N1 (stereo not drawn): 68.3%

Study 2
Compound: CCS(=O)(=O)c1cc2cc(C[C@](O)(CC(C)(C)c3ccc(F)cc3C(N)=O)C(F)(F)F)[nH]c2cn1
Effect on: cell-free assay
Method: competition with immobilised ligand
Concentration: 1 µM
Endpoint: remaining binding
EGFR (Homo sapiens, UniProt P00533, del752-759): 100%
MAP2K3 (Homo sapiens, UniProt P46734): 100%
STK25 (Homo sapiens, UniProt O00506): 86%
ACVR1 (Homo sapiens, UniProt Q04771): 100%
MELK (Homo sapiens, UniProt Q14680): 100%
Cyclin-dependent kinase 4, with cyclin D3 (CDK4, Homo sapiens, UniProt P11802): 97%
FGFR2 (Homo sapiens, UniProt P21802): 100%
Ribosomal protein S6 kinase alpha-1, N-terminal kinase domain (RPS6KA1, Homo sapiens, UniProt Q15418): 100%
NEK1 (Homo sapiens, UniProt Q96PY6): 45%
YES1 (Homo sapiens, UniProt P07947): 100%
PAK1 (Homo sapiens, UniProt Q13153): 95%
TYRO3 (Homo sapiens, UniProt Q06418): 81%
CAMKK1 (Homo sapiens, UniProt Q8N5S9): 100%
PRKAA1 (Homo sapiens, UniProt Q13131): 100%
MAP3K5 (Homo sapiens, UniProt Q99683): 100%
FGFR3 (Homo sapiens, UniProt P22607): 100%
MAP2K4 (Homo sapiens, UniProt P45985): 100%

Study 3
Target: Beta-1 adrenergic receptor (ADRB1, Homo sapiens, UniProt P08588)
UniProt P08588, sequence (whole entry, looked up): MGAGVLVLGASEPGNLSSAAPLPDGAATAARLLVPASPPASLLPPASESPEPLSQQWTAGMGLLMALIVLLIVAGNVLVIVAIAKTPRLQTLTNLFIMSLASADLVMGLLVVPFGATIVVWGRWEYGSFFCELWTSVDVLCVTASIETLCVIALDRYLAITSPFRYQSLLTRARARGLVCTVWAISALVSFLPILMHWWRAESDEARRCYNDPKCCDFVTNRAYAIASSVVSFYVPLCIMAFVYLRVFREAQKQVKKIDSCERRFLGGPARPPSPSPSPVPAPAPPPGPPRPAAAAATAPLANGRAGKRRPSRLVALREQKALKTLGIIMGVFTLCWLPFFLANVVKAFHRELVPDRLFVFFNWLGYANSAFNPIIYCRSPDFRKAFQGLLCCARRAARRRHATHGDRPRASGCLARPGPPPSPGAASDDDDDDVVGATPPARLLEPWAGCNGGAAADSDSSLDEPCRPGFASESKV
Mode: antagonist
Endpoint: IC50
CC(C)(O)Cn1c(NC(=O)c2ccc(-c3cn[nH]c3)s2)nc2cc(N3CCOC3=O)ccc21: ≥ 100 µM
CN(C)c1ccc(-c2nnnn2[C@H]2CO[C@H]3[C@@H]2OC[C@@H]3N[S+](=O)([O-])c2ccc3ccccc3c2)cc1: ≥ 100 µM
CC[C@@H]1OC(OC(c2c[nH]cn2)C(NC(=O)c2nc(C(CC(N)=O)NCC(N)C(N)=O)nc(N)c2C)C(=O)NC(C)C(O)C(C)C(=O)NC(C(=O)NCCc2nc(-c3nc(C(=O)NCCCCNC(=N)N)cs3)cs2)C(C)O)[C@@H](O[C@H]2O[C@H](CO)[C@@H](O)[C@H](OC(N)=O)[C@@H]2O)[C@@H](C)[C@@H]1C (stereo partly drawn): 10 µM
Fc1ccc(-c2c[nH]c([C@@H]3COCCN3Cc3cnc4ccccc4c3)n2)c(F)c1: ≥ 100 µM
Clc1cccc(N2CCN(C3CCNCC3)CC2)c1: ≥ 100 µM
CN1CCC(Cn2ccc3c(N4CCOCC4)nc(-c4cccc5[nH]ncc45)cc32)CC1: ≥ 100 µM
NCC(=O)Nc1cccc(-c2nn3c(=O)cc(N4CCNCC4)nc3s2)c1: ≥ 100 µM
Cc1ccc(C(=O)Nc2cccc(C(F)(F)F)c2)cc1-c1ccc2nc(NCCN3CCOCC3)ncc2c1: ≥ 100 µM
FC(F)(F)c1cccc(C2=NOC3(CCN(Cc4ccsc4)C3)C2)c1 (stereo not drawn): ≥ 100 µM

Study 4
Cell line: mouse MPNST tumor cells
Method: high-content immunofluorescence imaging
Item: nuclear SOX9
Concentration: 10 µM
Time: 12 h
Notes: mean of 2 replicates
Reference: DMSO control
Reading: higher = more nuclear SOX9
Endpoint: nuclear SOX9 intensity
CCOc1ccc2c(c1)C(C)=CC(C)(C)N2: 105 % of DMSO
CCC(=O)NC1Cc2ccccc2C(c2ccccc2)C1 (stereo not drawn): 108 % of DMSO
FC(F)(F)c1ccc(/C=C/c2nc(COc3ccc(CCCCn4ccnn4)cc3)co2)cc1: 103 % of DMSO
NC(=O)c1ccc(F)c2c1C[C@@H](N(C1CCC1)C1CCC1)CO2: 98 % of DMSO
O=C(Nc1cc(C(F)(F)F)cc(C(F)(F)F)c1)Nc1c(Br)cc(Br)cc1-c1nn[nH]n1: 106 % of DMSO
CN(C(=O)CCCOc1ccc2[nH]c(=O)ccc2c1)C1CCCCC1: 120 % of DMSO
COC(=O)CC1CC(c2ccc(O)cc2)=NO1 (stereo not drawn): 98.5 % of DMSO
CN1CCN(c2ncc(-c3cc(Cl)cc(Cl)c3Cl)c(N)n2)CC1: 169 % of DMSO
Nc1nc(=O)c2nc(CNc3ccc(C(=O)N[C@@H](CCC(=O)O)C(=O)O)cc3)cnc2[nH]1: 111 % of DMSO
C[C@H](O)C(=O)Nc1c(I)c(C(=O)NC(CO)CO)c(I)c(C(=O)NC(CO)CO)c1I: 97.2 % of DMSO
O=c1onc2cnc3ccccc3n12: 92.9 % of DMSO
Nc1nc2c(c(N3CC[C@@H](N)C3)n1)CCCc1ccccc1-2: 170 % of DMSO
Cc1cc(C)c2nc(-c3ccccn3)cc(C(=O)Nc3ccc(S(=O)(=O)Nc4onc(C)c4C)cc3)c2c1: 101 % of DMSO

Repeated from above (study 2):
STK25 (Homo sapiens, UniProt O00506): 86%
ACVR1 (Homo sapiens, UniProt Q04771): 100%
MELK (Homo sapiens, UniProt Q14680): 100%
Cyclin-dependent kinase 4, with cyclin D3 (CDK4, Homo sapiens, UniProt P11802): 97%
FGFR2 (Homo sapiens, UniProt P21802): 100%
Ribosomal protein S6 kinase alpha-1, N-terminal kinase domain (RPS6KA1, Homo sapiens, UniProt Q15418): 100%
